Results pooled from the literature.
Compare with care: the assays were run in different laboratories. Values joined by “and” are separate records of one study, mostly repeats; a detail may differ. ± marks the error that the study gave.

SMILES | target or system | assay | system | conditions | scale | endpoint | value
CC(C)NCCCn1c(Sc2cc3c(cc2I)OCO3)nc2c(N)ncnc21 |  | LC-MS/MS | human, left lymph node lesion biopsy | 140 mg/m^2, 24 h post-injection |  | tumour concentration | 2.8 µM
Cc1ccc(OC2CN(C)C2)cc1C(=O)N[C@H](C)c1cc(-c2cnn(C)c2)nc2ccccc12 | Vero E6 |  |  | 15.62 µM |  | viability | 97.4% and 97.2% and 98.2%
CCCC[C@H]1C(=O)N(C)[C@@H](CCCC)C(=O)N[C@@H](CCCNC(=O)CN2CCN(CC(=O)O)CCN(CC(=O)O)CCN(CC(=O)O)CC2)C(=O)N[C@H](C(=O)NCC(N)=O)CSCC(=O)N[C@@H](Cc2ccc(O)cc2)C(=O)N(C)[C@@H](C)C(=O)N[C@@H](CC(N)=O)C(=O)N2CCC[C@H]2C(=O)N[C@@H](Cc2c[nH]cn2)C(=O)N[C@@H](CC(C)C)C(=O)N(C)CC(=O)N[C@@H](Cc2c[nH]c3ccccc23)C(=O)N[C@@H](CO)C(=O)N[C@@H](Cc2c[nH]c3ccccc23)C(=O)N1C [gallium-68 labelled] |  |  | NOD/SCID mice, CHO-hPD-L1 xenograft, intestine | 60 min, PBS pretreatment |  | tissue uptake | 2.08 ± 0.36 %ID/g
CCN(CC)CCOc1ccc(-c2nnn(Cc3ccc(OC)cc3)c2N)cc1 |  |  | mouse plasma | 120 min |  | remaining compound | 102%
Cc1nc(N2CCC(N(C)c3cc(C(=O)NCCN4CCCC4)cnn3)CC2)nc(C)c1CC(C)C |  |  | female hamster | oral, 100 mg/kg |  | AUC(0-last) | 54600 ng·h/mL
CN1Cc2cc(Cl)ccc2-n2c(nnc2C2CCN(c3cccc([18F])n3)CC2)C1 |  |  | C57BL/6 mouse male, bone | intravenous, dose not given, 5 min, with: blocking agent 10 mg/kg |  | tissue uptake | 2.02 ± 1.32 %ID/g
CC(C)[C@@H]1NC(=O)CNC(=O)[C@H](CC(N)=O)NC(=O)[C@H](CCCNC(=N)N)NC(=O)[C@H](Cc2ccc(O)cc2)NC(=O)[C@H](C(C)C)NC(=O)[C@@H](NC(=O)[C@@H](NC(=O)[C@H](CC(N)=O)NC(=O)[C@H](Cc2c[nH]c3ccccc23)NC(=O)[C@H](C)NC(=O)[C@H](Cc2ccccc2)NC(=O)CNC(=O)[C@H](CCCCN)NC(=O)[C@H](Cc2ccccc2)NC(=O)[C@H](Cc2ccccc2)NC(=O)[C@H](CCCCN)NC(=O)OCC2c3ccccc3-c3ccccc32)C(C)C)CSSC[C@@H](C(=O)N[C@@H](Cc2c[nH]cn2)C(=O)N[C@@H](CCCNC(=N)N)C(=O)N[C@@H](CCCNC(=N)N)C(=O)N[C@@H](C)C(=O)N[C@@H](CC(N)=O)C(N)=O)NC(=O)[C@H](C(C)C)NC(=O)[C@H](CCCNC(=N)N)NC1=O |  |  | ICR mouse, blood | intramammary, 10 mg/kg, day 5, 3 d dosing |  | basophils | 1.66 ± 0.29%
CC[C@H](C)[C@H](NC(=O)[C@H](C)NC(=O)CNC(=O)[C@H](Cc1c[nH]cn1)NC(=O)[C@@H](NC(=O)[C@H](Cc1ccccc1)NC(=O)[C@H](CCCCN)NC(=O)CNC(=O)[C@H](C)NC(=O)[C@H](CCCCN)NC(=O)[C@H](Cc1ccccc1)NC(=O)[C@@H](NC(=O)[C@H](Cc1c[nH]cn1)NC(=O)[C@H](CCCCN)NC(=O)[C@H](Cc1ccccc1)NC(=O)[C@@H](NC(=O)[C@H](CO)NC(=O)CNC(=O)[C@H](Cc1c[nH]c2ccccc12)NC(=O)CNC(=O)[C@H](C)N)[C@@H](C)CC)[C@@H](C)CC)[C@@H](C)CC)C(=O)N[C@@H](CCC(N)=O)C(=O)N[C@@H](C)C(=O)N[C@@H](Cc1c[nH]cn1)C(=O)N[C@@H](CC(N)=O)C(=O)N[C@@H](CC(=O)O)C(N)=O |  |  | zebrafish embryos 4 hpf, E3 medium | 1 h |  | acute toxic concentration | 25 µM
N#[11C]c1ccc(-c2csc(NN=C3CCCC3)n2)cc1 |  |  | C57BL/6 mice, male, kidney | intravenous, 3 MBq, 15 min |  | radioactivity uptake | 12.3 ± 0.22 %ID/g
O=C1NC2(CC2)COc2ncc(F)cc2[C@H]2COCCN2c2ccn3ncc1c3n2 |  |  | Sprague-Dawley rat, male, plasma | oral, 5 mg/kg/day, end of treatment, 4-week repeated-dose toxicity |  | prothrombin time | 8.9 ± 0.5 s
CC[C@H](C)[C@H](NC(=O)[C@H](Cc1ccccc1)NC(=O)[C@H](CCC(=O)O)NC(=O)[C@H](CCCNC(=N)N)NC(=O)[C@@H](NC(=O)[C@H](C)NC(=O)[C@H](CCC(=O)O)NC(=O)[C@H](CCC(=O)O)NC(=O)[C@H](CCC(=O)O)NC(=O)[C@H](CC(C)C)NC(=O)[C@H](Cc1ccc(O)cc1)NC(=O)[C@H](CCCCN)NC(=O)[C@H](CO)NC(=O)[C@H](CC(C)C)NC(=O)[C@H](CC(=O)O)NC(=O)[C@H](CO)NC(=O)[C@@H](NC(=O)[C@H](Cc1ccccc1)NC(=O)[C@@H](NC(=O)CNC(=O)[C@H](CCC(N)=O)NC(=O)[C@@H](CO)NC(=O)[C@@H](N)Cc1c[nH]cn1)[C@@H](C)O)[C@@H](C)O)C(C)C)C(=O)N[C@@H](C)C(=O)N[C@@H](Cc1c[nH]c2ccccc12)C(=O)N[C@@H](CC(C)C)C(=O)N[C@@H](CCCCN)C(=O)N[C@@H](CC(N)=O)C(=O)NCC(=O)NCC(=O)N1CCC[C@H]1C(=O)N[C@@H](CO)C(=O)N[C@@H](Cc1ccc(O)cc1)C(=O)N[C@@H](CO)C(=O)N[C@@H](CCSC)C(=O)N[C@@H](CCC(=O)O)C(=O)N[C@@H](Cc1c[nH]cn1)C(=O)N[C@@H](Cc1ccccc1)C(=O)N[C@@H](CCCNC(=N)N)C(=O)N[C@@H](Cc1c[nH]c2ccccc12)C(=O)NCC(=O)N[C@@H](CCCCN)C(=O)N1CCC[C@H]1C(=O)N[C@H](C(N)=O)C(C)C |  |  | DIO male Wistar rats, serum | dose not given, 10 weeks, fasted |  | ALT | 30 ± 2 U/L
CC1(C)C(=O)N(c2ccc(C#N)c(C(F)(F)F)c2)C(=S)N1c1ccc(C(N)=O)c(F)c1 |  |  | human, male, plasma | oral, 80 mg, single dose, fasting |  | AUC(0-t) | 147000 ± 43100 ng·h/mL
C/C(=N\OCCCN1CCCCC1)c1ccc(C(F)(F)F)cc1 |  |  | mouse, plasma | oral, 75 mg/kg twice daily, day 7 |  | Cmax | 982 ± 216 ng/mL
CC(C)=CCC/C(C)=C\CCn1cc(CC(C)(P(=O)(O)O)P(=O)(O)O)nn1 |  |  | mouse CD-1, bile | intravenous, 0.3 mg/kg, 2 h |  | concentration | 5590 ± 1930 ng/mL
Cc1ccc(N2CCN(C)CC2)cc1C(=O)N[C@H](C)c1cc(-c2cnn(C)c2)nc2ccccc12 | African green monkey cells |  |  | 62.5 µM |  | viability | 72.9%
CC[C@H](C)[C@H](NC(=O)[C@H](CCCCN)NC(=O)CNC(=O)[C@H](CC(C)C)NC(=O)[C@H](Cc1ccccc1)NC(=O)[C@H](CCCCN)NC(=O)[C@H](CO)NC(=O)[C@H](Cc1ccccc1)NC(=O)[C@H](Cc1c[nH]c2ccccc12)NC(=O)[C@H](CCC(N)=O)NC(=O)[C@@H](NC(=O)[C@H](Cc1ccccc1)NC(=O)CCCCCNC(=O)CN1CCN(CC(=O)O)CCN(CC(=O)O)CCN(CC(=O)O)CC1)C(C)C)C(=O)N[C@@H](CCC(=O)O)C(=O)N1CCC[C@H]1C(=O)N[C@@H](CC(=O)O)C(=O)N[C@H](C(=O)N[C@@H](CO)C(=O)N[C@@H](CCC(N)=O)C(=O)N[C@H](C(=O)N[C@@H](CCC(N)=O)C(=O)N[C@@H](CC(=O)O)C(=O)N1CCC[C@H]1C(=O)N[C@@H](CC(N)=O)C(=O)N[C@@H](CC(=O)O)C(=O)N[C@@H](CCC(N)=O)C(=O)N[C@@H](Cc1ccc(O)cc1)C(=O)N[C@@H](CCC(=O)O)C(=O)N1CCC[C@H]1C(=O)N[C@@H](Cc1ccccc1)C(=O)O)C(C)C)C(C)C [copper-64 labelled] |  |  | C57BL/6 mice, male, tumour-free, small intestine | 24 h |  | tissue uptake | 6.15 ± 0.8 %ID/g
CSCC[C@H](NC(=O)[C@@H](NC(=O)[C@H](CC(C)C)NC(=O)[C@@H](NC(=O)[C@H](Cc1c[nH]cn1)NC(=O)CCCCCNC(=O)[C@H](CCCNC(=N)N)NC(=O)[C@H](CCCNC(=N)N)NC(=O)[C@H](CCCNC(=N)N)NC(=O)[C@H](CCC(N)=O)NC(=O)[C@H](CCCNC(=N)N)NC(=O)[C@H](CCCNC(=N)N)NC(=O)[C@H](CCCCN)NC(=O)[C@H](CCCCN)NC(=O)[C@H](CCCNC(=N)N)NC(=O)CNC(=O)[C@@H](N)Cc1ccc(O)cc1)C(C)C)C(C)C)C(=O)N[C@@H](CS)C(=O)N[C@@H](C)C(=O)N[C@H](C(N)=O)[C@@H](C)O |  |  | C57BL/6J mice | Alzet osmotic pump, 3 mg/kg, 8 weeks | reference: leukocytes | Baso | 0%
N=C(N)NCCC[C@@H](NC(=O)[C@H](N)Cc1c[nH]c2ccccc12)C(=O)N[C@H](CCCCN)C(=O)N[C@H](Cc1c[nH]c2ccccc12)C(=O)N[C@H](CCCNC(=N)N)C(=O)N[C@H](CCCCN)C(=O)N[C@H](Cc1c[nH]c2ccccc12)C(=O)N[C@H](CCCNC(=N)N)C(=O)N[C@H](CCCCN)C(=O)N[C@H](Cc1c[nH]c2ccccc12)C(=O)N[C@H](CCCNC(=N)N)C(=O)N[C@H](CCCCN)C(N)=O |  |  | mouse | intraperitoneal, 30 mg/kg single dose, day 1 |  | survival | 100%
CCCCCCCCCCCCCCCC(=O)N[C@@H](CCC(=O)NCCCC[C@H](NC(=O)[C@H](CC(=O)O)NC(=O)[C@H](CO)NC(=O)[C@@H](NC(=O)[C@H](Cc1ccccc1)NC(=O)[C@@H](NC(=O)CNC(=O)[C@H](CCC(N)=O)NC(=O)[C@H](C)NC(=O)[C@@H](Cc1ccc(O)cc1)NC(C)=O)[C@@H](C)O)[C@@H](C)O)C(=O)N[C@@H](CO)C(=O)N[C@@H](CCCCN)C(=O)N[C@@H](Cc1ccc(O)cc1)C(=O)N[C@@H](CC(C)C)C(=O)N[C@@H](CC(=O)O)C(=O)N[C@@H](CCC(=O)O)C(=O)N[C@@H](CCCNC(=N)N)C(=O)N[C@@H](C)C(=O)N[C@@H](C)C(=O)N[C@@H](CCC(N)=O)C(=O)N[C@@H](CC(=O)O)C(=O)N[C@@H](Cc1ccccc1)C(=O)N[C@H](C(=O)N[C@@H](CCC(N)=O)C(=O)N[C@@H](Cc1c[nH]c2ccccc12)C(=O)N[C@@H](CC(C)C)C(=O)N[C@@H](CC(C)C)C(=O)N[C@@H](CCC(=O)O)C(=O)NCC(=O)NCC(=O)N1CCC[C@H]1C(=O)N[C@@H](CO)C(=O)N[C@@H](CO)C(=O)NCC(=O)N[C@@H](C)C(=O)N1CCC[C@H]1C(=O)N1CCC[C@H]1C(=O)N1CCC[C@H]1C(=O)N[C@@H](CO)C(N)=O)C(C)C)C(=O)O |  |  | male cynomolgus monkey, plasma | subcutaneous, 0.0211 mg/kg |  | AUC(0-inf) | 1240 ng·h/mL

Some of these lines once more:
SMILES | target or system | assay | system | conditions | scale | endpoint | value
O=C1NC2(CC2)COc2ncc(F)cc2[C@H]2COCCN2c2ccn3ncc1c3n2 |  |  | Sprague-Dawley rat, male, plasma | oral, 5 mg/kg/day, end of treatment, 4-week repeated-dose toxicity |  | prothrombin time | 8.9 ± 0.5 s
CC[C@H](C)[C@H](NC(=O)[C@H](CCCCN)NC(=O)CNC(=O)[C@H](CC(C)C)NC(=O)[C@H](Cc1ccccc1)NC(=O)[C@H](CCCCN)NC(=O)[C@H](CO)NC(=O)[C@H](Cc1ccccc1)NC(=O)[C@H](Cc1c[nH]c2ccccc12)NC(=O)[C@H](CCC(N)=O)NC(=O)[C@@H](NC(=O)[C@H](Cc1ccccc1)NC(=O)CCCCCNC(=O)CN1CCN(CC(=O)O)CCN(CC(=O)O)CCN(CC(=O)O)CC1)C(C)C)C(=O)N[C@@H](CCC(=O)O)C(=O)N1CCC[C@H]1C(=O)N[C@@H](CC(=O)O)C(=O)N[C@H](C(=O)N[C@@H](CO)C(=O)N[C@@H](CCC(N)=O)C(=O)N[C@H](C(=O)N[C@@H](CCC(N)=O)C(=O)N[C@@H](CC(=O)O)C(=O)N1CCC[C@H]1C(=O)N[C@@H](CC(N)=O)C(=O)N[C@@H](CC(=O)O)C(=O)N[C@@H](CCC(N)=O)C(=O)N[C@@H](Cc1ccc(O)cc1)C(=O)N[C@@H](CCC(=O)O)C(=O)N1CCC[C@H]1C(=O)N[C@@H](Cc1ccccc1)C(=O)O)C(C)C)C(C)C [copper-64 labelled] |  |  | C57BL/6 mice, male, tumour-free, small intestine | 24 h |  | tissue uptake | 6.15 ± 0.8 %ID/g
